# Experimental data pooled from the literature.
# “And” joins repeats or separate records; there may be more than shown.
# Target: Ephrin type-B receptor 1 (EPHB1, Homo sapiens, UniProt P54762)
Compound,test,conditions,how to read,endpoint,value
CNC(=O)C[C@H](Cc1ccc(C#N)cc1)NC(=O)c1cc(-c2ccc(CN[C@H](C)c3ccc(C)cc3)o2)ccc1Cl,"enzyme activity, inhibitor",1 µM,,activity vs control,123%
NC(=O)[C@@H](O)C[C@H]1CCc2sc3ncnc(O[C@H]4CC[C@H](N5CCOCC5)CC4)c3c21,"enzyme activity, inhibitor",10 µM,,inhibition,24%
C=CC(=O)N1CCCC(n2c(=O)c3ncccc3n(Cc3ccc(Oc4ccccc4)cc3)c2=O)C1 (centres unmarked),"cell-free assay, competition with immobilised ligand",1 µM,,remaining binding,78%
Nc1ncc2c(n1)-c1c([nH]c3ccc(C4=CCOCC4)cc13)CCC2,"binding, competition with immobilised ligand",1 µM,,remaining binding,100%
COc1cc(Nc2nccc(-c3cnn4nc(OC)ccc34)n2)cc(C(F)(F)F)c1,"binding, competition with immobilised ligand",1 µM,,remaining binding,100%
CCN1CCN(Cc2ccc(C(=O)Nc3ccc(C)c(NCc4cnc5[nH]ccc5c4OC)c3)cc2C(F)(F)F)CC1,"binding, competition with immobilised ligand",1 µM,,remaining binding,10%
COc1c(OCCCN2CCOCC2)ccc2c1N=C(NC(=O)c1cnc(N)nc1)N1CCN=C21,"kinase activity, inhibitor",1 µM,relative to: untreated control,remaining activity,86%
C=CC(=O)N1Cc2nc(-c3cc(-c4cc(Cl)cnc4Cl)c(F)cc3F)n(-c3ccncn3)c2C1,cell-free assay,1 µM,,inhibition,2.1%
C=CC(=O)Nc1cccc(-c2cnc3[nH]cc(C(=O)NC(C)(C)C)c3n2)c1,kinase activity,0.1 µM,,inhibition,-5% and 0%
CNC(=O)C1CCN(c2cc(C)c(F)cc2NC(=O)c2ccc(-c3cc(O)ccc3C)c(C)c2)CC1,"binding, competition with immobilised ligand",1 µM,,remaining binding,4.3%
O=C=[N][Ru-4]123([n]4c5ccc(O)cc5c5c6c(c7cc(F)c[n+]1c7c54)C(=O)NC6=O)[S+]1CC[S+]2CC[S+]3CC1 (centres unmarked),enzyme activity,"100 nM, human enzyme, added: 10 µM ATP",relative to: untreated,remaining activity,146%
Cc1cccc(O[C@H]2CCC[C@@H](C(C)CNCc3ccncc3)C2)c1 (relative stereo),cell-free assay,10 µM,,inhibition,-5%
O=C(Cc1ccc(OCc2ccccc2)cc1)NC1(C(=O)O)CCN(C(=O)c2ccc(-c3cccc(Cl)c3)cc2)CC1,"enzyme activity, inhibitor",10 µM,,activity vs control,142%
CCN1CCN(Cc2ccc(NC(=O)c3ccc(C)c(NC(=O)c4cncc(-c5cccs5)c4)c3)cc2C(F)(F)F)CC1,"binding, competition with immobilised ligand",1 µM,,remaining binding,3.6%
